Experimental data of several laboratories.
Each line is one published result; not all experiments were run side by side. ± gives the spread as reported. Converted amounts (≈) assume the structure as drawn.

c1ccc2c(NCCCn3ccnc3)nncc2c1  infection inhibition (Leishmania braziliensis; J774.2 macrophages; IC25, 240 h, day 10; relative to: untreated): 72%
CC[C@H]1OC(=O)[C@H](C)[C@@H](O[C@H]2C[C@@](C)(OC)[C@@H](O)[C@H](C)O2)[C@H](C)[C@@H](O[C@@H]2O[C@H](C)C[C@H](N(C)C)[C@H]2O)[C@](C)(O)C[C@@H](C)CN(C)[C@H](C)[C@@H](O)[C@]1(C)O  sensitive strains (other Haemophilus species; community-acquired pneumonia patients; Fine score 70 or more): 100%
Cc1ccc(S(=O)(=O)N2C(=O)CSC2c2cccc(Br)c2)cc1 (stereo not drawn)  MIC (Lacticaseibacillus casei; broth microdilution; NCIM 2651): 16 µg/mL (≈ 38.8 µM)
O=C(NCCN1CCCC1)c1cc(-c2ccc(CN3CCOCC3)cc2)nc2ccc(F)cc12  EC50 (Plasmodium vivax; schizont maturation; clinical isolates; ex vivo range): 0.25 to 1.39 nM
OC(Cn1cncn1)(Cn1cncn1)c1ccc(F)cc1F  EC20 (cytochrome c release, ELISA; BALB/cByJ female mouse liver mitochondria; 30 min; relative to: alamethicin maximal release): > 400000 nM
CC1(C)S[C@@H]2[C@H](NC(=O)[C@H](N)c3ccc(O)cc3)C(=O)N2[C@H]1C(=O)O  sensitive strains (other Haemophilus species; community-acquired pneumonia patients; Fine score below 70): 88.5%
O=C(Nc1nnc(SCC(O)(Cn2cncn2)c2ccc(F)cc2F)s1)Nc1ccc(F)cc1F (stereo not drawn)  MIC90 (Nannizzia gypsea; broth microdilution; PTCC 5070; 48 h, 37 °C): 2 to 4 µg/mL (≈ 3.81 to 7.61 µM)
COC(=O)c1cc(Cl)ccc1N(C)C(=O)c1ccn2ncc(-c3ccc(C(N)=O)cc3)c2c1  EC50 (Cryptosporidium hominis; cytopathic effect; HCT-8; 48 h): 32 nM
O=C(Nc1cccc(Cl)c1)Nc1nnc(SCC(O)(Cn2cncn2)c2ccc(F)cc2F)s1 (stereo not drawn)  MIC90 (Nannizzia gypsea; broth microdilution; PTCC 5070; 48 h, 37 °C): 2 to 4 µg/mL (≈ 3.82 to 7.63 µM)
O=C(CN1C(=O)Cc2c([nH]c3ccc(Br)cc23)-c2ccc(Cl)cc21)N1CCNCC1  EC50 (Leishmania braziliensis; parasite growth; J774; 24 h, intracellular, amastigote): 200 to 400 nM
CC[C@H]1OC(=O)[C@H](C)[C@@H](O[C@H]2C[C@@](C)(OC)[C@@H](O)[C@H](C)O2)[C@H](C)[C@@H](O[C@@H]2O[C@H](C)C[C@H](N(C)C)[C@H]2O)[C@](C)(O)C[C@@H](C)C(=O)[C@H](C)[C@@H](O)[C@]1(C)O  sensitive strains (all pathogens; community-acquired pneumonia patients; Fine score 70 or more): 26.3%
COc1cc(CNCCCCCCCCNCc2ccc(OCc3ccccc3)c(OC)c2)ccc1OCc1ccccc1  inhibition (Toxoplasma gondii; parasite growth; human foreskin fibroblasts, RH GFP; 1 µM): 0%
CN(C)C(=O)CN1C(=O)Cc2c([nH]c3ccc(Br)cc23)-c2ccc(Cl)cc21  infected macrophages (Leishmania braziliensis; intracellular amastigote infection, DAPI fluorescence microscopy; macrophages; 10 µM, 24 h, 5 µM if macrophages detach; lower = more active): 72 to 107%
Cc1ccc(NC(=O)CSc2nc3ccccc3c(=O)n2-c2ccc(S(N)(=O)=O)cc2)cc1  inhibition zone (Candida albicans; microbial growth, well diffusion; ATCC10231; 500 µg/mL, 72 h): 24 mm
O=S1(=O)N(CCN2CCOCC2)CCN1Cc1cccc(Oc2ccccc2)c1  EC50 (Norwalk virus; replicon RNA level, qRT-PCR; HG23 (Norwalk virus replicon); 24 h): 4200 ± 1800 nM
CC(=O)OC[C@@]1(C)[C@H]2CC[C@@H]3CN(Cc4ccc(C(F)(F)F)cc4)[C@@H](C4=CCOC4=O)C[C@H]3[C@]2(C)CC[C@H]1OC(C)=O  inhibition (Human coronavirus 229E; viral replication, cytopathic effect; MRC5 cells; 25 µM): ~100%
NNC(=O)c1ccncc1  EC20 (cytochrome c release, ELISA; BALB/cByJ female mouse liver mitochondria; 30 min; relative to: alamethicin maximal release): > 400000 nM
COc1cc2[nH]c(C)c(-c3ccc(Oc4ccc(OC(F)(F)F)cc4)cc3)c(=O)c2cc1Cl  single-dose cure dose (Plasmodium yoelii; mouse, patent infection; oral, no recrudescence, PEG-400 vehicle): > 20 mg/kg

For quick reference, copied from above:
O=C(Nc1cccc(Cl)c1)Nc1nnc(SCC(O)(Cn2cncn2)c2ccc(F)cc2F)s1 (stereo not drawn)  MIC90 (Nannizzia gypsea; broth microdilution; PTCC 5070; 48 h, 37 °C): 2 to 4 µg/mL (≈ 3.82 to 7.63 µM)
